Experimental data of several laboratories.
Parts stem from different laboratories: compare values within a part only.

Sample 1 — method: RNA Bind-n-Seq; form: RNA; matrix: in vitro; tested at: 365 nM; reference: no-protein control; direction: higher = stronger binding
Target: RNA binding protein fox-1 homolog 2, RRM domain, GST-SBP tag (RBFOX2, Homo sapiens, UniProt O43251-10, residues 100-194)
Notes: natural RNA segment, single round, ends assumed
| Strand | RBNS enrichment (R) |
| --- | --- |
| GGGAGUUCUACAGUCCGACGAUCGGGUCAUGUAAAAUAUUAGACACUAAUAUUUUCAUAGAAAUUAGGCUGGAGAAAGAAGGAAGAAAUGGUUUUCUUAAAUACCUACAAAAAAGUUACUGUGGUAUCUAUGAUGGAAUUCUCGGGUGCCAA | 0.42 |
| GGGAGUUCUACAGUCCGACGAUCGCAGUAGACAUUGAAACCAGAGAUUGUCUUCAGAAUACAUAUAAUCUGAAUAGUGUGCUGGCGGGAGUGGUUUGUCGGAGCAGCCACACUGAUUCGGUGUUUUUGCAGUGUGGAAUUCUCGGGUGCCAA | 0.755 |
| GGGAGUUCUACAGUCCGACGAUCGUGCAGGGCCUUGUGUUGUGUGGUUUUACUUGGGCUGGGGGUGGUUCUUGCGGUUUCUUCCAUUGCUUCUAGGCAGAGCCAAGGACUCAUCCUCACCAUCCAUACAUGGGUGGAAUUCUCGGGUGCCAA | 2.48 |
| GGGAGUUCUACAGUCCGACGAUCCUGAUUUUCACUCUGAUUUUUAACGUUUCUUUAAAUAUUUAUAAUGUAGCUUCUUUCAAAAUAUUUUCAUGAAAAAUUACUUUUAUUAUACCAUUAUGUGCAUGUUAUUGUGGAAUUCUCGGGUGCCAA | 14.4 |

Sample 2 — method: protein-binding microarray; form: double-stranded DNA, one strand shown; matrix: in vitro; tested at: not given; direction: higher = stronger binding
Target: Hepatocyte nuclear factor 3-beta, forkhead domain (FOXA2, Homo sapiens, UniProt Q9Y261, residues 142-269)
Notes: k-mer, scored over probes, only values ≥0.25
Target sequence (chain): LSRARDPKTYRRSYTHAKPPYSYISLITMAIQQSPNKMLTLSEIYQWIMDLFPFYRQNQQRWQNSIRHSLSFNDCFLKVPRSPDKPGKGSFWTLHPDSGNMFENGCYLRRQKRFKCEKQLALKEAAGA
| Strand | E-score |
| --- | --- |
| TGTGGAAA | 0.303 |
| GTTGTACA | 0.284 |
| AGTAATTA | 0.343 |

Sample 3 — method: aptamer microarray, sandwich; form: DNA with 2'F-ANA; matrix: in vitro; tested at: 200 nM; added: Cy3 exosite-II aptamer, 400 nM; direction: higher = stronger binding; strand: GGTTGGTGTGGTTGG
Target: Prothrombin, mature alpha-thrombin (F2, Homo sapiens, UniProt P00734)
Notes: whole 15-mer aptamer, many near background
| Modification | mean fluorescence intensity [a.u.] |
| --- | --- |
| 2'F-ANA at 4 5 7 8 14 15 | 47.6 |
| 2'F-ANA at 1 3 4 5 6 7 8 9 10 11 12 15 | 52.2 |
| 2'F-ANA at 1 2 4 6 7 8 11 12 15 | 236 |
| 2'F-ANA at 3 5 6 7 10 11 13 14 15 | 49.5 |
| 2'F-ANA at 2 3 5 12 13 15 | 144 |

Mixed results
| Molecule | target | test | test system | conditions | scale | measurement | value |
| --- | --- | --- | --- | --- | --- | --- | --- |
| PhoQ, residues 284 288 289 292 302 303 TVTVVA | PhoP, residues 12 14 15 18 19 VQGLL (Escherichia coli, UniProt P23836) | Sort-seq, item: YFP reporter | E. coli | PhoQ-PhoP variant library, added: 10 µM Mg2+ | reference: high Mg2+ state, higher = stronger signaling | fold induction | 16.1 |

Excerpt of the above (sample 2):
| Strand | E-score |
| --- | --- |
| AGTAATTA | 0.343 |
| GTTGTACA | 0.284 |
